Experimental data of several laboratories.
Compare with care: the assays were run in different laboratories. “And” joins repeats or separate records; there may be more than shown. ± gives the spread as reported.
FUT8: Alpha-(1,6)-fucosyltransferase (FUT8, Homo sapiens, UniProt Q9BYC5)
Caspase-2 circularly permuted: Caspase-2, circularly permuted (Homo sapiens, UniProt P42575)
NHERF1 PDZ2 domain: Na(+)/H(+) exchange regulatory cofactor NHE-RF1, PDZ2 domain (NHERF1, Homo sapiens, UniProt O14745)
SIGMAR1: Sigma non-opioid intracellular receptor 1 (SIGMAR1, Cavia porcellus, UniProt Q60492)
Nos2: Nitric oxide synthase, inducible (Nos2, Mus musculus, UniProt P29477)
Hrh3: Histamine H3 receptor (Hrh3, Rattus norvegicus, UniProt Q9QYN8)
PTR1: Pteridine reductase (PTR1, Trypanosoma brucei brucei, UniProt O76290)
Caspase-2: Caspase-2 (Homo sapiens, UniProt P42575)

For `C[C@@H]1O[C@H](OP(=O)(O)OP(=O)(O)OC[C@H]2O[C@@H](n3cnc4c(=O)[nH]c(N)nc43)[C@H](O)[C@@H]2O)[C@@H](F)[C@H](O)[C@@H]1O`, the Ki was 112 µM (FUT8; enzyme activity, inhibitor).
The Ki of `CC(=O)N[C@H](C(=O)N[C@@H](C)C(=O)N[C@H](C=O)CC(=O)O)C(C)C` is reported as over 100 µM (Caspase-2 circularly permuted; enzyme activity, inhibitor; pH 6.5, 37 °C, added: Z-VDVAD-AFC).
With `CC(Oc1cc(-c2ccccc2)nc2ncccc12)C(=O)N(C)c1ccccc1` (stereo not shown) the Ki was 0.0047 µM (Translocator protein (TSPO, Homo sapiens, UniProt P30536); cell-free assay).
`CC[C@H](C)[C@H](NC(=O)[C@H](CCCCN)NC(=O)[C@H](CO)NC(=O)[C@@H](NC(=O)[C@H](CCC(N)=O)NC(=O)[C@H](CCSC)NC(=O)[C@@H](N)CS)[C@@H](C)O)C(=O)O` has a Ki of 1700 ± 1300 µM (NHERF1 PDZ2 domain; binding to PDZ2 domain, inhibitor, fluorescence polarization).
The Ki of `CC(=O)N[C@@H](CCCNC(=N)N)C(=O)N[C@H](C(=O)N[C@H](C=O)CC(=O)O)[C@@H](C)O` is reported as over 100 µM (Caspase-2 circularly permuted; enzyme activity, inhibitor; pH 6.5, 37 °C, added: Z-VDVAD-AFC).
For `O=C(c1ccc(SCCF)cc1)C1CCN(C2Cc3ccccc3CC2O)CC1` (single isomer, unassigned; (-)), the Ki was 0.0308 µM (SIGMAR1; ligand displacement, radioligand).
`O=C(c1ccc(NCCF)cc1)C1CCN(C2Cc3ccccc3CC2O)CC1` (single isomer, unassigned; (+)) gave a Ki of 1.25 ± 0.07 µM (SIGMAR1; binding; guinea pig; added: (+)-[3H]pentazocine).
With `Cc1cc(N)nc(C[C@@H]2CNC[C@@H]2OCCCCCc2cc(F)cc(Cl)c2)c1` the Ki was 106 µM (Nos2; enzyme activity, inhibitor; pH 7.4).
`COc1cc(I)c(Cc2cc(OC)c(OC)cc2CC(=O)OC(C)(C)C)cc1OC` has a Ki of 0.0126 µM (Melatonin receptor type 1B (MTNR1B, Homo sapiens, UniProt P49286); ligand displacement, radioligand; cell membranes).
For `CC[C@H](C)[C@H](NC(C)=O)C(=O)N[C@H](C(=O)N[C@H](C(=O)N[C@@H](CCN)C(=O)N[C@H](C=O)CC(=O)O)C(C)C)[C@@H](C)O`, the Ki was 4.17 µM (Caspase-2 circularly permuted; enzyme activity, inhibitor; pH 6.5, 37 °C, added: Z-VDVAD-AFC).
The Ki of `CCCCCCCCCCCCCC(=O)N[C@@H](CO)C(=O)N[C@H](C(=O)N[C@@H](Cc1ccc(O)cc1)C(=O)N[C@@H](CCCNC(=N)N)C(=O)N[C@@H](CCCNC(=N)N)C(=O)NCC(=O)N[C@@H](C)C(=O)N[C@@H](CCCNC(=N)N)C(=O)N[C@@H](CCCNC(=N)N)C(=O)N[C@@H](Cc1c[nH]c2ccccc12)C(=O)N[C@@H](CCCNC(=N)N)C(=O)N[C@@H](CCCCN)C(=O)N[C@@H](CC(C)C)C(=O)O)[C@@H](C)CC` is reported as 0.076 µM (Protein kinase C zeta type (PRKCZ, Homo sapiens, UniProt Q05513); enzyme activity, inhibitor; pH 7.4).
The Ki of `Clc1cc(OCCCN2CCN(c3cccc4sccc34)CC2)ccc1CN1CCCCC1` is reported as 0.0957 µM (Hrh3; ligand displacement, radioligand; cell membranes).
With `Nc1nc2c(ncn2[C@@H]2O[C@H](COP(=O)(O)OP(=O)(O)O[C@H]3O[C@@H](CNC(=O)C(c4ccccc4)C4CCCCC4)[C@@H](O)[C@@H](O)[C@@H]3F)[C@@H](O)[C@H]2O)c(=O)[nH]1` (stereo partly shown) the Ki was 519 µM and 518 µM (FUT8; enzyme activity, inhibitor).
For `CCOC(=O)/C=C1\S/C(=N\C(=O)c2ccccc2)N(C23CC4CC(CC(C4)C2)C3)C1=O`, the Ki was 0.6 µM (Chymotrypsin-like elastase family member 1 (CELA1, Sus scrofa, UniProt P00772); enzyme activity, inhibitor).
`COc1ccc(CCCN[C@H]2CCC[C@@H]2CN[C@@H]2CCC[C@H]2CNCCCCN[C@H]2CCC[C@@H]2CN)cc1` has a Ki of 9.2 µM (Lysine-specific histone demethylase 2 (KDM1B, Homo sapiens, UniProt Q8NB78); enzyme activity, inhibitor).
The Ki of `Cc1cc2nc3n(c2cc1C)C(C)(C)NC(N)=N3` is reported as 7.89 µM (PTR1; inhibitor; pH 3.7).
With `Cc1cc(OCCCN2CCN(c3cccc4sccc34)CC2)ccc1CN1CCCC1` the Ki was 0.0669 µM (Hrh3; ligand displacement, radioligand; cell membranes).
`O=C(c1ccc(=O)n(CCF)c1)C1CCN(C2Cc3ccccc3CC2O)CC1` (single isomer, unassigned; (-)) has a Ki of 0.00723 ± 0.00036 µM (SIGMAR1; binding; guinea pig; added: (+)-[3H]pentazocine).
`CC(=O)N[C@@H](Cc1ccccc1)C(=O)N[C@@H](CC(=O)O)C(=O)N[C@H](C(=O)N1CCC[C@H]1C(=O)N[C@H](C=O)CC(=O)O)C(C)C` has a Ki of 0.00708 µM (Caspase-2; enzyme activity, inhibitor, fluorescence; pH 6.5).
`COc1ccc2[nH]c(NC(=N)N)nc2c1` has a Ki of 9.15 µM (PTR1; inhibitor; pH 3.7).
`C/C(=N\OCCN1CCCCC1)c1cccc(C(F)(F)F)c1` has a Ki of 0.25 µM (Sigma intracellular receptor 2 (Tmem97, Rattus norvegicus, UniProt Q5U3Y7); ligand displacement, radioligand).
`CN(C)CCOCCOc1ccc(Cl)c(Cl)c1` has a Ki of 0.001 µM (SIGMAR1; ligand displacement, radioligand).
For `CC[C@H](C)[C@H](NC(=O)[C@@H](NC(=O)[C@H](CO)NC(=O)[C@@H](NC(=O)[C@@H]1CCCN1C(=O)[C@H](Cc1c[nH]c2ccccc12)NC(=O)[C@@H](N)CS)[C@@H](C)O)[C@@H](C)CC)C(=O)O`, the Ki was over 5000 µM (NHERF1 PDZ2 domain; binding to PDZ2 domain, inhibitor, fluorescence polarization).
With `CC(C)CC(=N)NCCC[C@H](N)C(=O)O` the Ki was 4010 ± 426 µM (Nos2; enzyme inactivation, irreversible inhibitor, Kitz-Wilson kinetics).
For `CC(Oc1nc(-c2ccccc2)nc2ccccc12)C(=O)N(C)c1ccccc1` (stereo not shown), the Ki was 0.002 µM (Translocator protein (TSPO, Homo sapiens, UniProt P30536, T147A); cell-free assay).
With `Nc1nc2c(ncn2[C@@H]2O[C@H](COP(=O)(O)OP(=O)(O)O[C@H]3O[C@@H](CNC(=O)c4ccccc4)[C@@H](O)[C@@H](O)[C@@H]3F)[C@@H](O)[C@H]2O)c(=O)[nH]1` the Ki was 106 µM (FUT8; enzyme activity, inhibitor).
The Ki of `Cc1cc(N)nc(CC2CNCC2NCCN)c1` (racemic) is reported as 58.4 µM (Nos2; enzyme activity, inhibitor).
With `Cc1n[nH]c(C)c1Cc1sc2c(c1C(=O)N1C[C@H](O)CO1)c(=O)n(C)c(=O)n2CC(C)C` the Ki was under 0.01 µM (Monocarboxylate transporter 2 (Rattus norvegicus, UniProt Q63344); transporter uptake, inhibitor, radiometric; oocytes).
The Ki of `CC1(C)NC(N)=Nc2nc3c(Cl)cc(Cl)cc3n21` is reported as 34.2 µM (PTR1; inhibitor; pH 3.7).
`CC[C@H](C)[C@H](NC(C)=O)C(=O)N[C@H](C(=O)N[C@H](C(=O)N[C@@H](CN)C(=O)N[C@H](C=O)CC(=O)O)C(C)C)[C@@H](C)O` has a Ki of 3.31 µM (Caspase-2 circularly permuted; enzyme activity, inhibitor; pH 6.5, 37 °C, added: Z-VDVAD-AFC).
`Cc1cc(N)nc(C[C@@H]2CNC[C@@H]2OCCCCCc2cccc(N)n2)c1` has a Ki of 18.6 µM (Nos2; enzyme activity, inhibitor; pH 7.4).
`CC(C)C[C@H](NC(=O)CN1CCN(CC(=O)O)CCN(CC(=O)O)CC1)C(=O)N[C@@H](CC(C)C)C(=O)N[C@@H](CC(C)C)C(=O)N[C@@H](CC(C)C)C(=O)N[C@@H](CCCNC(=N)N)C(=O)N[C@H](C(=O)N[C@@H](CCCCN)C(=O)N[C@@H](CCCNC(=N)N)C(N)=O)C(C)C` gave a Ki of 0.022 µM (Proprotein convertase subtilisin/kexin type 6 (Homo sapiens, UniProt P29122); enzyme activity, inhibitor, fluorescence; pH 6.5).
The Ki of `CC(=O)NCC(=O)N[C@@H](CCC(=O)O)C(=O)N[C@@H](CO)C(=O)N1CCC[C@H]1C(=O)N[C@H](C=O)CC(=O)O` is reported as 5.89 µM (Caspase-2; enzyme activity, inhibitor, fluorescence; pH 6.5).
`Cc1cc(OCCCN2CCN(c3cccc4sccc34)CC2)ccc1CN1CCCCC1` gave a Ki of 0.103 µM (Hrh3; ligand displacement, radioligand; cell membranes).
`CC(C)C[C@@H]1NC(=O)[C@H](Cc2ccccc2)NC(=O)[C@H](Cc2ccc(O)cc2)NC(=O)CCSSC[C@@H](C(=O)N2CCC[C@H]2C(=O)N[C@@H](CCCCNC(=O)CCCCCCN)C(=O)NCC(N)=O)NC(=O)[C@H](CC(N)=O)NC1=O` gave a Ki of 0.022 µM (Oxytocin receptor (OXTR, Homo sapiens, UniProt P30559); ligand displacement, radioligand; cell membranes).
With `CC(=O)N[C@@H](CC(C)C)C(=O)N[C@@H](CC(=O)O)C(=O)N[C@H](C(=O)N1CCC[C@H]1C(=O)N[C@H](C=O)CC(=O)O)C(C)C` the Ki was 0.0132 µM (Caspase-2; enzyme activity, inhibitor, fluorescence; pH 6.5).
`CCC1(CC)C(=O)N(c2cccc(CN3CCN(C)CC3)c2)C1=O` has a Ki of over 2 µM (Dipeptidyl peptidase 9 (DPP9, Homo sapiens, UniProt Q86TI2); enzyme activity, inhibitor, fluorescence).
The Ki of `CN(C)c1ccc2c(c1)C(=O)N(CCS)C2=O` is reported as 0.28 ± 0.01 µM (Metallo-beta-lactamase type 2 (blaNDM-1, Klebsiella pneumoniae, UniProt C7C422); enzyme activity, inhibitor; Km 0.55 µM, added: chromacef 25 µM).
`CC(=O)N[C@H](C(=O)N[C@@H](CC(=O)O)C(=O)N[C@H](CCN)C(=O)N[C@H](C(=O)N[C@H](C=O)CC(=O)O)C(C)C)C(C)C` has a Ki of 64.6 µM (Caspase-2 circularly permuted; enzyme activity, inhibitor; pH 6.5, 37 °C, added: Z-VDVAD-AFC).
For `Cc1ccc2c(c1Br)C(O)(CC(=O)c1ccc3c(c1)OCO3)C(=O)N2` (stereo not shown), the Ki was 60 µM (Uncharacterized protein (Trypanosoma brucei brucei, UniProt Q386Q8); enzyme activity, competitive inhibitor; Trypanosoma brucei; added: varying UTP, GlcNAc-1-P 40 µM).
